Measured values from different studies.
Lines come from different studies, so protocols differ.

CN1C(=O)[C@@H](NC(=O)c2nnc(Cc3ccccc3)[nH]2)COc2cccnc21 — subjects with headache (human, fasted; oral, 100 mg single dose): 16.7%
CC(C)c1c(C(=O)Nc2ccccc2)c(-c2ccccc2)c(-c2ccc(F)cc2)n1CC[C@@H](O)C[C@@H](O)CC(=O)O — subjects with adverse event (measured: drug-related adverse events; healthy human; oral, dose not given; relative to: subjects): 3%
C=C(C)[C@@H]1CC[C@]2(NCCN3CCS(=O)(=O)CC3)CC[C@]3(C)[C@H](CC[C@@H]4[C@@]5(C)CC=C(C6=CC[C@@](CF)(C(=O)O)CC6)C(C)(C)[C@@H]5CC[C@]43C)[C@@H]12 — subjects with back pain (healthy human volunteers; oral, 500 mg, 7 days): 0%
C[C@@H](c1nc(-c2ccc(C#N)cc2)cs1)[C@](O)(Cn1cncn1)c1cc(F)ccc1F — subjects with adverse event (gastroesophageal reflux disease; human; oral, dose not given, added: ethinyl estradiol/norethindrone): 4.3%
Cc1nc(Nc2ncc(C(=O)Nc3c(C)cccc3Cl)s2)cc(N2CCN(CCO)CC2)n1 — subjects with TEAE (human; oral, 100 mg): 61.1%
Cc1cc(-c2nccc3c2ccn3CC(=O)Nc2ccc(-c3cnccn3)cn2)ccn1 — subjects with Epistaxis adverse event (human; 15 mg once daily, multiple ascending dose): 11.1%
CC(C)n1c(Nc2cccnc2)nc2cnc(Nc3ccc(N4CCN(C)CC4)cc3)nc21 — subjects with TEAE (measured: skin and subcutaneous disorders (SOC); healthy human, male; oral, dose not given, CTCAE grade 1-3): 4.8%
CN(Cc1cnc2nc(N)nc(N)c2n1)c1ccc(C(=O)N[C@@H](CCC(=O)O)C(=O)O)cc1 — subjects with adverse event (measured: any adverse event; healthy human; oral, dose not given; relative to: subjects): 3%
O=C(COc1ccc(Cl)cc1)NC12CC(c3nnc([C@H]4C[C@@H](OC(F)(F)F)C4)o3)(C1)C2 — subjects with moderate TEAE (humans; 200 mg once daily, highest severity): 42.9%
COC(=O)N[C@H](C(=O)N1CCC[C@H]1c1ncc(-c2cc(F)c3c(c2)O[C@@H](c2cnc(C4CC4)s2)n2c-3cc3cc(-c4cnc([C@@H]5CCCN5C(=O)[C@@H](NC(=O)OC)C(C)C)[nH]4)ccc32)[nH]1)C(C)C — subjects with back pain (healthy adult human; oral, 180 mg, 6 days, compound alone): 6.3%
CC(C)(C(=O)N1CCOc2c(C#N)cncc2C1)C(F)F — subjects with presyncope TEAE (human, both sexes; oral, 20 mg single dose): 0%
C[C@H]1O[C@@H](O[C@H]2[C@@H](O)C[C@H](O[C@H]3[C@@H](O)C[C@H](O[C@H]4CC[C@@]5(C)[C@H](CC[C@@H]6[C@@H]5C[C@@H](O)[C@]5(C)[C@@H](C7=CC(=O)OC7)CC[C@]65O)C4)O[C@@H]3C)O[C@@H]2C)C[C@H](O)[C@@H]1O — subjects with adverse event (measured: nervous system disorders; healthy human; oral, dose not given): 4.2%
CCO — subjects with treatment-related adverse events (human): 88.9%
CC[C@H](C)[C@H](NC(=O)[C@H](Cc1ccccc1)NC(=O)[C@H](CCC(=O)O)NC(=O)[C@H](CCCCNC(=O)COCCOCCNC(=O)COCCOCCNC(=O)CC[C@H](NC(=O)CCCCCCCCCCCCCCCCC(=O)O)C(=O)O)NC(=O)[C@H](C)NC(=O)[C@H](C)NC(=O)[C@H](CCC(N)=O)NC(=O)CNC(=O)[C@H](CCC(=O)O)NC(=O)[C@H](CC(C)C)NC(=O)[C@H](Cc1ccc(O)cc1)NC(=O)[C@H](CO)NC(=O)[C@H](CO)NC(=O)[C@@H](NC(=O)[C@H](CC(=O)O)NC(=O)[C@H](CO)NC(=O)[C@@H](NC(=O)[C@H](Cc1ccccc1)NC(=O)[C@@H](NC(=O)CNC(=O)[C@H](CCC(=O)O)NC(=O)C(C)(C)NC(=O)[C@@H](N)Cc1cnc[nH]1)[C@@H](C)O)[C@@H](C)O)C(C)C)C(=O)N[C@@H](C)C(=O)N[C@@H](Cc1c[nH]c2ccccc12)C(=O)N[C@@H](CC(C)C)C(=O)N[C@H](C(=O)N[C@@H](CCCNC(=N)N)C(=O)NCC(=O)N[C@@H](CCCNC(=N)N)C(=O)NCC(=O)O)C(C)C — subjects with recovered adverse events (healthy human; subcutaneous, 0.25 to 1.5 mg weekly, 16 weeks): 83.1%
CCC(C)n1ncn(-c2ccc(N3CCN(c4ccc(OCC5COC(Cn6cncn6)(c6ccc(Cl)cc6Cl)O5)cc4)CC3)cc2)c1=O (centres unmarked) — subjects with abnormal faeces (healthy humans; oral, 200 mg, dosed days 8 and 9): 0%
CC(C)c1nc(N(C)S(C)(=O)=O)nc(-c2ccc(F)cc2)c1/C=C/[C@@H](O)C[C@@H](O)CC(=O)O — subjects with adverse events (healthy human subjects; oral, dose not given, added: fruquintinib): 25%
C[C@@H](N)c1cc(Cl)ccc1Cn1c(=S)[nH]c(=O)c2[nH]ccc21 — subjects with nausea (human severe renal impairment; oral, 2.5 mg single dose): 0%
CC(=O)N(C)[C@H]1CCN(C(=O)c2cnc3c(c2)C[C@](C)(c2ccc(F)cc2)N3)C1 — subjects with AEs leading to discontinuation (healthy male humans; oral, dose not given, multiple rising dose): 4.2%
CC(=O)CC(c1ccccc1)c1c(O)c2ccccc2oc1=O (centres unmarked) — subjects AE-related withdrawal (human; concentration not given, trial 1): 0%
CO[C@H]1/C=C/O[C@@]2(C)Oc3c(C)c(O)c4c(O)c(c(/C=N/N5CCN(C)CC5)c(O)c4c3C2=O)NC(=O)/C(C)=C\C=C\[C@H](C)[C@H](O)[C@@H](C)[C@@H](O)[C@@H](C)[C@H](OC(C)=O)[C@@H]1C — subjects with TEAEs (measured: upper respiratory tract infection; humans; oral, dose not given): 0%
C[C@H]1CN(C(=O)CC#N)[C@]12CCN(c1ncnc3[nH]ccc13)C2 — subjects with Arthralgia (healthy human; oral, dose not given): 3.1%
COc1c(C)c2c(c(O)c1C/C=C(\C)CCC(=O)OCCN1CCOCC1)C(=O)OC2 — subjects with TEAEs (healthy human subjects; oral, dose not given): 20.8%
CN(C)C(=N)N=C(N)N — subjects with adverse event (measured: Headache; healthy human; oral, dose not given): 16.7%
